# Experimental data pooled from the literature.
# Numbered parts are unrelated; each lists some results of a single study.

# Study 1
# Target: TAR DNA-binding protein 43, full length, His tag (TARDBP, Homo sapiens, UniProt Q13148, residues 1-414)
# Method: RNA Bind-n-Seq
# Molecule type: RNA
# Matrix: in vitro
# Tested at: 20 nM
# Setting: 6-mer, flanks averaged, single round
# Added: 150 mM LiCl
# Relative to: input library
# Reading: higher = stronger binding
Strand,6-mer enrichment (R)
GUUAGA,0.991
UACAUG,0.901
UCCUAG,0.845
UGGCUU,0.99
GCCGGG,1.09
UUGUGU,1.9
GGCCGA,0.975
GAACGA,0.871

# Study 2
# Target: Prothrombin, mature alpha-thrombin (F2, Homo sapiens, UniProt P00734)
# Method: aptamer microarray, sandwich
# Molecule type: DNA with 2'F-ANA
# Matrix: in vitro
# Tested at: 200 nM
# Setting: whole 15-mer aptamer, many near background
# Added: Cy3 exosite-II aptamer, 400 nM
# Reading: higher = stronger binding
# Strand: GGTTGGTGTGGTTGG
Modification,mean fluorescence intensity
2'F-ANA at 1 2 3 4 7 9 11 12 13 14,60.1 a.u.
2'F-ANA at 1 4 9 10 12 14,45 a.u.
2'F-ANA at 1 3 5 6 8 9 12 13 14 15,46 a.u.
2'F-ANA at 1 4 5 6 7 8 9 10 11 12 13 14,54 a.u.
2'F-ANA at 1 7 9 10 11 12 13 14,49 a.u.
2'F-ANA at 1 2 6 8 11,144 a.u.
2'F-ANA at 4 6 9 12 13 14 15,75 a.u.
2'F-ANA at 1 5 6 12 13 15,78.8 a.u.

# Study 3
# Target: Interferon regulatory factor 7, full length, phosphomimetic (IRF7, Homo sapiens, UniProt Q92985, residues 1-503, S471D/S472D/S475D/S476D/S477D/S483D/S484D/S487D)
# Sequence of UniProt Q92985 (whole entry, unmodified, looked up): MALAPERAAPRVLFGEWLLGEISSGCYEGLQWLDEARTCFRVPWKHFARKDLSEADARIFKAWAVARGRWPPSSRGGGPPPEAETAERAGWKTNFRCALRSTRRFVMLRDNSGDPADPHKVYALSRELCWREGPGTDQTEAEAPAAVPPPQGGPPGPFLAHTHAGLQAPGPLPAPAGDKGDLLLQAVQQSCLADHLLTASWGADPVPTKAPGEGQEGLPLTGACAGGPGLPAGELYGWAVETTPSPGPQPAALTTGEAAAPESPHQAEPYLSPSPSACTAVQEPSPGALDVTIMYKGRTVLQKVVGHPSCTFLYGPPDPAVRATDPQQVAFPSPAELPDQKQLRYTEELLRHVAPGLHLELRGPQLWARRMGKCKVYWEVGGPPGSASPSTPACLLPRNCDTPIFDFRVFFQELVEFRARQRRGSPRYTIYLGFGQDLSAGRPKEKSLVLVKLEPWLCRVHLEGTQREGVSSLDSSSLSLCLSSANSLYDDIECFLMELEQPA
# Method: protein-binding microarray
# Molecule type: double-stranded DNA, one strand shown
# Matrix: in vitro
# Tested at: 2200 nM top
# Setting: 60-bp whole probe
# Added: salmon DNA 0.4 mg/ml
# Relative to: random background probes
# Reading: higher = stronger binding
# Shared flanks, not repeated: GCCTAGCAC … GTCTTGATTCGCTTGACGCTGCTG
Strand,fitted relative affinity
TCATATTTAAGAACTATGACTGTGCTA,-0.204 z-score
TTAGGTATCGGTTTTGGTTAGTGCTAG,2.62 z-score
TTAGAACTAAGTCTCGATTAGTGCTAG,-0.411 z-score
GACGGTAACGACACTGGGGACGTGCTA,-0.72 z-score
GACGATCTCAGTCACGAGACGTGCTAG,0.101 z-score
ATATATATGAATATATATTAGTGCTAG,0.142 z-score
TCAATCTTCACTCTTAATTAGTGCTAG,0.616 z-score
TCAACTCTTTACATGGGACTGTGCTAG,0.662 z-score

# Other studies, line by line
Molecule,target,test,test system,conditions,quantity,result
FRDEAGAIL,"HLA class I histocompatibility antigen, A alpha chain, allele A*80:01 (Homo sapiens, UniProt P04439)",peptide-MHC binding,peptide,concentration not given,binding,inactive

# Repeated from above (study 1):
Strand,6-mer enrichment (R)
UGGCUU,0.99
GCCGGG,1.09
UUGUGU,1.9
